Measurements pooled from the literature.
Parts stem from different laboratories: compare values within a part only.

Study 1
Target: Interferon regulatory factor 7, full length, phosphomimetic (IRF7, Homo sapiens, UniProt Q92985, residues 1-503, S471D/S472D/S475D/S476D/S477D/S483D/S484D/S487D)
Sequence of UniProt Q92985 (whole entry, unmodified, looked up): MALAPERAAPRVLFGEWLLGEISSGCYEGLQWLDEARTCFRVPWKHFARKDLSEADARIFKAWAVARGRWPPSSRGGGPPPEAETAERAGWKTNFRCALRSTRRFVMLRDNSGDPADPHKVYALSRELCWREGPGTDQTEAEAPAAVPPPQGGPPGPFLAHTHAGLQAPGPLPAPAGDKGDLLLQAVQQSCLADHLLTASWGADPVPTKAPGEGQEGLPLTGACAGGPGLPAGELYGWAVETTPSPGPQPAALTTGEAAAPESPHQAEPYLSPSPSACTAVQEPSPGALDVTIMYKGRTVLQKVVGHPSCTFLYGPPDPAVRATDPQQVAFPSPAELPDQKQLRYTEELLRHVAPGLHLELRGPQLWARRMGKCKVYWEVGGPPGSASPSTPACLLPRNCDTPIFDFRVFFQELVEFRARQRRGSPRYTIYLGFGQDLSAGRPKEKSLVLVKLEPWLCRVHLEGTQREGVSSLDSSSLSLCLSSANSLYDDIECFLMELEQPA
Technique: protein-binding microarray
Molecule type: double-stranded DNA, one strand shown
Sample: in vitro
Concentration: 2200 nM top
Notes: 60-bp whole probe
Added: salmon DNA 0.4 mg/ml
Reference: random background probes
Reading: higher = stronger binding
`GCCTAGCACGACGATTTTAGTATCGAGACGTGCTAGGTCTTGATTCGCTTGACGCTGCTG` — result for “fitted relative affinity”: 0.533 z-score.
`GCCTAGCACTTAGAACTCGGGACTGGATTAGTGCTAGTCTTGATTCGCTTGACGCTGCTG` — result for “fitted relative affinity”: -0.493 z-score.
`GCCTAGCACGATGGTATCGACACTGGGGACGTGCTAGTCTTGATTCGCTTGACGCTGCTG` — result for “fitted relative affinity”: -0.199 z-score.
`GCCTAGCACTTAGGATTGGGTCTCGGTTAGTGCTAGGTCTTGATTCGCTTGACGCTGCTG` — result for “fitted relative affinity”: 0.148 z-score.

Study 2
Target: Histone acetyltransferase KAT6A, winged helix 2, GST fusion (KAT6A, Homo sapiens, UniProt Q92794, residues 85-181)
Technique: protein binding microarray
Molecule type: double-stranded DNA, one strand shown
Sample: in vitro
Concentration: not given
Notes: 8-mer, flanks averaged, mean of 2 arrays, mostly near background
Reference: not given
Reading: higher = stronger binding
Residues (chain): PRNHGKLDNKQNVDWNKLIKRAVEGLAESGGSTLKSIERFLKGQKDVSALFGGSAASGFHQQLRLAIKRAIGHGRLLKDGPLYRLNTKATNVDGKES
The E-score of `ATCTTCTG` is reported as -0.155.
For `ACGACCTC`, the E-score was 0.113.
`TACGGATA` gave an E-score of 0.0815.
The E-score of `AGCTCGAT` is reported as 0.146.
The E-score of `GGGGAGAA` is reported as -0.0211.

Study 3
Target: Centromere-binding protein 1, full length, N-terminal tag (CBF1, Saccharomyces cerevisiae, UniProt P17106, residues 1-351)
Sequence of UniProt P17106 (whole entry, looked up): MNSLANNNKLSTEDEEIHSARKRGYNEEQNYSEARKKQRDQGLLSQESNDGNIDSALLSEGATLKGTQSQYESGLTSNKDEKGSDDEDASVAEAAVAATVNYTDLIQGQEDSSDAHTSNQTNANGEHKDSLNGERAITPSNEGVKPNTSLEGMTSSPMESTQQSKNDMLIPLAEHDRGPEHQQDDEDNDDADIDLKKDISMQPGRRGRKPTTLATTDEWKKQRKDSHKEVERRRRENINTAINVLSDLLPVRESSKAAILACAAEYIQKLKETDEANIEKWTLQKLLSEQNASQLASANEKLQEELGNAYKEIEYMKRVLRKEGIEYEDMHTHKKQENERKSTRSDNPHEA
Technique: protein-binding microarray
Molecule type: double-stranded DNA, one strand shown
Sample: in vitro
Concentration: 0.8 µM
Notes: whole 60-bp probe, no competitor
Reading: higher = stronger binding
With `CTAGTTCCTTGGAACCACATGATTTACTCAACATTCGTCTTGATTCGCTTGACGCTGCTG` the fluorescence intensity was 998 a.u.
For `GAAATATAACAAGCGTACGTGATCCCTTTCATTTAGGTCTTGATTCGCTTGACGCTGCTG`, the fluorescence intensity was 615 a.u.
For `GAATGATAACGTTCTCACCAGATTATGAAATCATAGGTCTTGATTCGCTTGACGCTGCTG`, the fluorescence intensity was 517 a.u.

Further values, each from its own experiment
For `PhoQ, residues 284 288 289 292 302 303 SSCCRF`, the fold induction was 18.3 (PhoP, residues 12 14 15 18 19 HEGLL (Escherichia coli, UniProt P23836); Sort-seq, item: YFP reporter; E. coli; PhoQ-PhoP variant library, added: 10 µM Mg2+; reference: high Mg2+ state, higher = stronger signaling).

Some of these lines once more (study 1):
`GCCTAGCACTTAGAACTCGGGACTGGATTAGTGCTAGTCTTGATTCGCTTGACGCTGCTG` — result for “fitted relative affinity”: -0.493 z-score.
